Published values collected from several papers.
Compare with care: the assays were run in different laboratories. Several values in a cell are separate wells, animals, samples, runs or records. ± gives the spread as reported.
PIM1: Serine/threonine-protein kinase pim-1 (PIM1, Homo sapiens, UniProt P11309)
Sequence of UniProt P11309 (whole entry, looked up): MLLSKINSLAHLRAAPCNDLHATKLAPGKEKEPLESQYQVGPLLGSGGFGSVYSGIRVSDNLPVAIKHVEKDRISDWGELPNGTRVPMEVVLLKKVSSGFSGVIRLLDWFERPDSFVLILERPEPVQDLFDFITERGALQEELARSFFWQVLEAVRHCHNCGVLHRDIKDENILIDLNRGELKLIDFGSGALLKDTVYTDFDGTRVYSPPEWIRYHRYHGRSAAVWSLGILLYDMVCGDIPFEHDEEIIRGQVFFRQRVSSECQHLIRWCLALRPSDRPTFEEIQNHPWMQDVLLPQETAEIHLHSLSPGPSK
PSMB7 in 20S proteasome: Proteasome subunit beta type-7, in 20S proteasome (PSMB7, Homo sapiens, UniProt Q99436)
Sequence of UniProt Q99436 (whole entry, looked up): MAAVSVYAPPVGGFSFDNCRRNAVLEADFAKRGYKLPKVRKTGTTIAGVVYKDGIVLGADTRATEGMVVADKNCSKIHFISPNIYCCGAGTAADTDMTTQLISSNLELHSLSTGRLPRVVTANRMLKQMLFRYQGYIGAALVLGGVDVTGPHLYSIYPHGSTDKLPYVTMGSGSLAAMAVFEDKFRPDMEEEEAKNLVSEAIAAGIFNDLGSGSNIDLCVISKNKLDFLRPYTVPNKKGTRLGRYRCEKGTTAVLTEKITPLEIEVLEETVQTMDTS
Sequence of UniProt Q9Y285 (whole entry, looked up): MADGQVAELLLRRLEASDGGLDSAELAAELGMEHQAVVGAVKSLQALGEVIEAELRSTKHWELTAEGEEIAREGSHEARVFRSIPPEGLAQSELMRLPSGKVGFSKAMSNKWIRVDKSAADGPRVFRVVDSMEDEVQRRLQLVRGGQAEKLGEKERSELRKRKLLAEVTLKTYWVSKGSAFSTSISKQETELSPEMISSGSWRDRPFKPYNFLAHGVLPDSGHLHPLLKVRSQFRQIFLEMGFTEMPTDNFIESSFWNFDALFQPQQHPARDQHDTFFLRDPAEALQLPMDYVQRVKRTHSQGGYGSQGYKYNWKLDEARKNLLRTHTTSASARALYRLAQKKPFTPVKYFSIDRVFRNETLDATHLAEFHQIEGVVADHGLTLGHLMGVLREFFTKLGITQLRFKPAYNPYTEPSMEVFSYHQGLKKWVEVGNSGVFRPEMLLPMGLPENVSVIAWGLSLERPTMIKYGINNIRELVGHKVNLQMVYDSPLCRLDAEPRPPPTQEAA
Sequence of UniProt P28907 (whole entry, looked up): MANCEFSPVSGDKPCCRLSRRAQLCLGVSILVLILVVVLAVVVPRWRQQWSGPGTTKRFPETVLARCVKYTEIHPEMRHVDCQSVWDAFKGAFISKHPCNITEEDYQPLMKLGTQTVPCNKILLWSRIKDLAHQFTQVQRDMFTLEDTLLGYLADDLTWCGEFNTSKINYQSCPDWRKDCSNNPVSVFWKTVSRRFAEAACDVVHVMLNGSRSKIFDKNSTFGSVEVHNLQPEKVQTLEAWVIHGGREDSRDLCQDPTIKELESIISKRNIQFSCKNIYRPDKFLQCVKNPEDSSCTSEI
Sequence of UniProt P07550 (whole entry, looked up): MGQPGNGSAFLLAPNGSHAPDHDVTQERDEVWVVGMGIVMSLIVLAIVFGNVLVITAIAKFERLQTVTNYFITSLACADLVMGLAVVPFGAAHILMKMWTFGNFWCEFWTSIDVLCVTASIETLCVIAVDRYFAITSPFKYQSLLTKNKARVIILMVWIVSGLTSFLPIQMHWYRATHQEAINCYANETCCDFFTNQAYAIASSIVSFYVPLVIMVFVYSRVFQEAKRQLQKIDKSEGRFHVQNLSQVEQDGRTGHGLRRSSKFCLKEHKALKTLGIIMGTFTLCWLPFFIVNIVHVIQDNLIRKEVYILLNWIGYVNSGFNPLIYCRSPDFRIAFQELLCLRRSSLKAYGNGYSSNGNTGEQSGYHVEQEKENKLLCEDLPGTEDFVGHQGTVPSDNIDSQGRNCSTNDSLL
Sequence of UniProt P21802 (whole entry, looked up): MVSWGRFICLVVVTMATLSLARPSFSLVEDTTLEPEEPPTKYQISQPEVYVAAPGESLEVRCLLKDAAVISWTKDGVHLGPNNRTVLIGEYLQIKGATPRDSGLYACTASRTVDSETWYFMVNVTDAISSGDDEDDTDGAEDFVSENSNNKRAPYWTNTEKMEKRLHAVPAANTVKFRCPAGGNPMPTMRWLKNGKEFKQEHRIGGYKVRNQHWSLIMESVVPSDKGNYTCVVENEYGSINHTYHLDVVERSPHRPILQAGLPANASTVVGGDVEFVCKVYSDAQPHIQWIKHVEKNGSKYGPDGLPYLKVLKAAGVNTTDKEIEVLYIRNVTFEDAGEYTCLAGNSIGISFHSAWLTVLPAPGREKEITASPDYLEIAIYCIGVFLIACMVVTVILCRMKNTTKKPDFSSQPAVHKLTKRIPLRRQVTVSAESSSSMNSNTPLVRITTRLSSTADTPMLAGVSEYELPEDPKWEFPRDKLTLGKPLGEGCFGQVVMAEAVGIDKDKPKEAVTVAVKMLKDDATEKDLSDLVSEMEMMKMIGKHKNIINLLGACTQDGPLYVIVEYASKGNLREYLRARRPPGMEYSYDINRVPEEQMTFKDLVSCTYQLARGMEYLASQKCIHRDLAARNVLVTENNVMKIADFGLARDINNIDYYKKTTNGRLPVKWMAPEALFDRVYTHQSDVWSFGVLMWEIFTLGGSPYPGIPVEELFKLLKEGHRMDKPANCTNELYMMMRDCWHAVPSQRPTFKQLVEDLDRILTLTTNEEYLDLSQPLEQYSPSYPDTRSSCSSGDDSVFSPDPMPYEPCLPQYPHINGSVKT
Sequence of UniProt P24280 (whole entry, looked up): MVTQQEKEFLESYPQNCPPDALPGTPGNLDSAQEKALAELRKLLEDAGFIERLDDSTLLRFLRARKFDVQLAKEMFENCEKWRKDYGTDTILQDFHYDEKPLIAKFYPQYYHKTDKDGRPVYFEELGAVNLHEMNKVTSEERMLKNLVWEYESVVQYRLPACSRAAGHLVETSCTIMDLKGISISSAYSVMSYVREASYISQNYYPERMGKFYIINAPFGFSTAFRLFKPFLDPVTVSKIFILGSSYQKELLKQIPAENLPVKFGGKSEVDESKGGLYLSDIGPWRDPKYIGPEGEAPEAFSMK
Sequence of UniProt Q15116 (whole entry, looked up): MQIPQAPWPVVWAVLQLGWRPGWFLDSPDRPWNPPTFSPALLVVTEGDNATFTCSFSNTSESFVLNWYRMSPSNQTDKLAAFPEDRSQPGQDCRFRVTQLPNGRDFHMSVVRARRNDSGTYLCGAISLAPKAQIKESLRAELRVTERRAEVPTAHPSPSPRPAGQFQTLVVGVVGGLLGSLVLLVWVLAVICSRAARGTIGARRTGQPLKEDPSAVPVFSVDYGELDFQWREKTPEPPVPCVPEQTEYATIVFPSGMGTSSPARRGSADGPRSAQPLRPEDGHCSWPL
Sequence of UniProt P39051 (whole entry, looked up): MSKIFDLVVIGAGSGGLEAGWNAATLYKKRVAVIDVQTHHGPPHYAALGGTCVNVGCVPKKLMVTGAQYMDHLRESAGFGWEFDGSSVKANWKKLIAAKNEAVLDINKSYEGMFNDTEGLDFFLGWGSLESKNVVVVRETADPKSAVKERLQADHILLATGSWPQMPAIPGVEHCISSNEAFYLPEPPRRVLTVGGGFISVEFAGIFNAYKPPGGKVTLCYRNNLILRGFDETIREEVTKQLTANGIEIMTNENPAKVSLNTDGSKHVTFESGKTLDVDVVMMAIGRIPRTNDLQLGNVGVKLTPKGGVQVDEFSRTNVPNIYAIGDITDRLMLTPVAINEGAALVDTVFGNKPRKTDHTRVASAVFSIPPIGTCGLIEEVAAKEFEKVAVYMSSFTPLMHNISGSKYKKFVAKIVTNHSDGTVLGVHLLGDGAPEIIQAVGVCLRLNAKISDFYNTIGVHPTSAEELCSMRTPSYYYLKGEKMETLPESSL
Sequence of UniProt Q16539 (whole entry, looked up): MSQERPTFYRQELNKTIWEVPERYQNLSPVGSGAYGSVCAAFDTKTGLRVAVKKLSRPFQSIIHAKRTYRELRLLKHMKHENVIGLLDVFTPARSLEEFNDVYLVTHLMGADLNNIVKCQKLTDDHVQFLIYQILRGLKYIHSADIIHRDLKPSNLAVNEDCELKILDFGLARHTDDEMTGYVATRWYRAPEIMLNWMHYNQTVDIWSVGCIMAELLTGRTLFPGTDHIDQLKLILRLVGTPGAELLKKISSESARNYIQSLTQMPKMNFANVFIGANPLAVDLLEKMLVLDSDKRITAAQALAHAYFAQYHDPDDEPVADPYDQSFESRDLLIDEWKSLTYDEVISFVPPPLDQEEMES
Sequence of UniProt Q04771 (whole entry, looked up): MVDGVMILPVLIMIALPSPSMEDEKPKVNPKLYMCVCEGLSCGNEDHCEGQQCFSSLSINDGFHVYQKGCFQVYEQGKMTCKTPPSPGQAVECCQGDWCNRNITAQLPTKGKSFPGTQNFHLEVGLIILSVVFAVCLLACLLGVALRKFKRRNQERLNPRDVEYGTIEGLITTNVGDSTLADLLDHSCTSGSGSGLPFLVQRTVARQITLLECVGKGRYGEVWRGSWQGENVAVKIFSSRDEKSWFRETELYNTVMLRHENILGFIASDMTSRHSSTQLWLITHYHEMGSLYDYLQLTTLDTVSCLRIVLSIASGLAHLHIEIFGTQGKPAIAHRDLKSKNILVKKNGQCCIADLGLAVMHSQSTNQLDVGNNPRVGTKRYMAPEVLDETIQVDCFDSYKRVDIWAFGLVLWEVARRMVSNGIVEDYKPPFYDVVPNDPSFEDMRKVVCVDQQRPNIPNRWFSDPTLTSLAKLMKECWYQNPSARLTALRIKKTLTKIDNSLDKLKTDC
Sequence of UniProt P47811 (whole entry, looked up): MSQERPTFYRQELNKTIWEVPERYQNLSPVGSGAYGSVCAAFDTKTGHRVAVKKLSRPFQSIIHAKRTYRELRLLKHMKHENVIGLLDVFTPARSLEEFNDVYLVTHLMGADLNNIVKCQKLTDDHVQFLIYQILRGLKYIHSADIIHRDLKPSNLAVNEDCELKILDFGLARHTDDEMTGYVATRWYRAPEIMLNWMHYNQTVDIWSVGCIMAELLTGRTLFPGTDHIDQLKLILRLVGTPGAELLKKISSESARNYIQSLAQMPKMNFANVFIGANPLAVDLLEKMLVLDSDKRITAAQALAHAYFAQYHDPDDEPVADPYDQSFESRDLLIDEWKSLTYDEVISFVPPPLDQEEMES

Structure (SMILES)	target	assay	test system	setting	IC50
COc1cc(/C=C2/SC(=S)N(CC(=O)Nc3cccc(C(=O)O)c3)C2=O)cc(OC)c1OC	ADP-ribosyl cyclase/cyclic ADP-ribose hydrolase 1 (CD38, Homo sapiens, UniProt P28907)	enzyme activity, inhibitor, fluorescence	–	–	17.1 µM
COc1cc(-c2nc3ccc(C(=O)NCCCN4CCN(c5cccc(C)c5C)CC4)cc3n2C2CCC2)cc(OC)c1OC	Activin receptor type-1 (ACVR1, Homo sapiens, UniProt Q04771)	target engagement in cells, BRET	–	–	0.79 µM
CNC(=O)C1CCN(c2ccccc2NC(=O)c2ccc(-c3cc(O)ccc3C)c(OC)c2)CC1	Tyrosine-protein kinase Yes (YES1, Homo sapiens, UniProt P07947)	target engagement, NanoBRET	intact cells	–	> 50 µM
CSc1ncc(-c2cc(-c3ccc(Br)cc3)[nH]c(=N)c2C#N)n1Cc1ccccc1	PIM1	enzyme activity, inhibitor	–	–	0.132 µM and < 0.15 µM
C=C(NC(=O)C(=C)NC(=O)c1csc(C2=NC3c4csc(n4)C4NC(=O)c5csc(n5)C(C(C)(O)C(C)O)NC(=O)C5CSC(=N5)C(=CC)NC(=O)C(C(C)O)NC(=O)c5csc(n5)C3(CC2)NC(=O)C(C)NC(=O)C(=C)NC(=O)CNC(=O)C(C(C)CC)NC2C=Cc3c(C(C)O)cc(nc3C2O)C(=O)OC4C)n1)C(N)=O (stereo not drawn)	PSMB7 in 20S proteasome	trypsin-like activity, inhibitor	purified human 20S proteasome	37 °C, 15 min preincubation, together with: Boc-Leu-Arg-Arg-AMC	1.2 ± 0.1 µM
O=C1Nc2ccc(Cl)cc2C1=Cc1ccc(-c2cccc(C(=O)NCC3CCNCC3)c2)o1 (mixture of isomers)	PIM1	enzyme activity, inhibitor	–	–	0.001 µM
CC(=O)NCCN(CC(=O)NCCN(CC(=O)NCCN(CC(=O)NCCC(N)=O)C(=O)[C@@H](N)CCCNC(=N)N)C(=O)[C@@H](N)CCCNC(=N)N)C(=O)[C@@H](N)Cc1ccccc1	HIV-1 TAR RNA	Tat/TAR complex displacement, FRET	–	room temperature, together with: 10 nM Tat/TAR complex	3.8 ± 0.8 µM
CC(C)C[C@H](NC(=O)[C@H](CC(N)=O)NC(=O)[C@H](CC(C)C)NC(=O)[C@@H](NC(=O)[C@@H](NC(=O)[C@@H]1CCCN1C(=O)[C@H](CCCNC(=N)N)NC(=O)[C@H](CCCCN)NC(=O)[C@@H]1CCCN1)[C@@H](C)O)[C@@H](C)O)C(=O)N[C@@H](Cc1ccccc1)C(=O)NCCCCCC(=O)N[C@@H](CCCNC(=N)N)C(=O)N[C@@H](CCCNC(=N)N)C(=O)N[C@@H](CCCNC(=N)N)C(=O)N[C@@H](CCCNC(=N)N)C(=O)N[C@@H](CCCNC(=N)N)C(=O)N[C@@H](CCCNC(=N)N)C(=O)N[C@@H](CCCNC(=N)N)C(=O)N[C@@H](CCCNC(=N)N)C(=O)N[C@@H](CCCNC(=N)N)C(N)=O	Mitogen-activated protein kinase 14 (Mapk14, Mus musculus, UniProt P47811)	enzyme activity, inhibitor, radiometric	–	pH 7.5	14.1 µM
COc1ccc(NC(=O)N2CCCN3CCC(c4ccc(C#Cc5ccccc5)cc4)C3C2)cc1 (stereo not drawn)	Phenylalanine--tRNA ligase alpha subunit (Homo sapiens, UniProt Q9Y285)	enzyme activity, inhibitor, absorbance	–	–	16 µM and 15.6 µM
CCc1nc2cc(C)c(Oc3ccc(OC(F)(F)F)cc3)cc2c(O)c1C	cytochrome b (Musca domestica, UniProt A0A0P0LY28)	succinate-cytochrome c oxidoreductase activity, inhibitor	Musca domestica, mitochondria	4 min preincubation, 30 °C	0.005 µM
C#CCCNC(=O)[C@@H](NC(=O)N[C@H](C(=O)N[C@H]1/C=C/CCNC(=O)/C=C/[C@H](C(C)C)NC1=O)C(C)C)C(C)C	Proteasome subunit beta type-7 (PSMB7, Homo sapiens, UniProt Q99436)	trypsin-like activity, inhibitor	–	human constitutive proteasome, together with: Bz-VGR-AMC	0.14 µM
CC[C@H](C)[C@H](NC(=O)[C@H](CCC(=O)O)NC(=O)[C@H](CCCCN)NC(=O)[C@H](CC(C)C)NC(=O)[C@H](CCCCNC(=O)[C@H](CC(C)C)NC(=O)[C@H](CCCNC(=N)N)NC(=O)[C@H](Cc1c[nH]cn1)NC(=O)[C@H](Cc1c[nH]cn1)NC(=O)[C@H](Cc1c[nH]cn1)NC(=O)[C@@H](N)CO)NC(=O)[C@H](CC(C)C)NC(=O)[C@H](CCCNC(=N)N)NC(=O)[C@H](Cc1c[nH]cn1)NC(=O)[C@H](Cc1c[nH]cn1)NC(=O)[C@H](Cc1c[nH]cn1)NC(=O)[C@@H](N)CO)C(=O)N[C@@H](C)C(=O)N[C@@H](CC(N)=O)C(=O)N[C@@H](CO)C(=O)N1CCC[C@H]1C(=O)N[C@H](C(=O)N[C@@H](CCC(N)=O)C(=O)N[C@@H](Cc1ccccc1)C(=O)N[C@@H](Cc1c[nH]c2ccccc12)C(=O)N[C@@H](CCCNC(=N)N)C(=O)N[C@@H](CCSC)C(=O)N[C@H](C(=O)N[C@@H](C)C(=O)N[C@@H](CCCNC(=N)N)C(=O)N[C@@H](CC(N)=O)C(=O)N[C@H](C(=O)N[C@@H](CC(C)C)C(=O)NCC(=O)N[C@@H](CC(N)=O)C(=O)NCC(=O)N[C@@H](C)C(=O)N[C@@H](CCCCN)C(=O)N[C@@H](CCC(N)=O)C(=O)N[C@@H](CO)C(=O)N[C@@H](CC(C)C)C(=O)N[C@@H](CC(N)=O)C(=O)N[C@H](C(=O)N[C@@H](CCC(=O)O)C(=O)N[C@@H](Cc1c[nH]cn1)C(=O)N[C@@H](C)C(=O)O)[C@@H](C)CC)[C@@H](C)O)C(C)C)[C@@H](C)O	Programmed cell death protein 1, with PD-L1 (PDCD1, Homo sapiens, UniProt Q15116)	PD-L1 binding to Jurkat T cells, inhibitor, flow cytometry	stimulated Jurkat	1 h, 4 °C, together with: human PD-L1 2 µg/mL	2.58 µM
C=CC(=O)Nc1ccc(-c2c(-c3ccc(Oc4ccccc4)cc3)c3c(N)ncnc3n2C)cc1	Fibroblast growth factor receptor 2 (FGFR2, Homo sapiens, UniProt P21802)	Caliper mobility shift	–	30 min preincubation, together with: 100 µM ATP	0.006 µM
O=C(Cc1ccc(F)cc1)NCCOc1ccc(-c2ccc(F)cc2)nn1	V-type immunoglobulin domain-containing suppressor of T-cell activation (VSIR, Homo sapiens, UniProt Q9H7M9)	enzyme activity, inhibitor, FRET	–	–	0.121 µM
C=C(NC(=O)C(=C)NC(=O)c1csc(C2=NC3c4csc(n4)C4NC(=O)c5csc(n5)C(C(C)(O)C(C)O)NC(=O)C5CSC(=N5)C(=CC)NC(=O)C(C(C)O)NC(=O)c5csc(n5)C3(CC2)NC(=O)C(Cc2ccccc2)NC(=O)C(=C)NC(=O)C(C)NC(=O)C(C(C)CC)NC2C=Cc3c(C(C)O)cc(nc3C2O)C(=O)OC4C)n1)C(N)=O (stereo not drawn)	PSMB7 in 20S proteasome	trypsin-like activity, inhibitor	purified 20S proteasome	15 min preincubation, 37 °C, together with: Boc-Leu-Arg-Arg-AMC substrate	0.24 ± 0.03 µM
Nc1nnc(Nc2ccc(Cl)cc2)[nH]1	Mitogen-activated protein kinase 14 (MAPK14, Homo sapiens, UniProt Q16539)	enzyme activity, inhibitor	–	–	~3000 µM
Fc1ccc(Nc2nc(NC3CCCCC3)c3ccccc3n2)cc1F	Beta-2 adrenergic receptor (ADRB2, Homo sapiens, UniProt P07550)	enzyme activity, inhibitor	–	–	18 µM
Cn1c(=O)nc2n(C3CCCC3)nc(-c3cc(Br)ccc3F)nc-2c1=O	Trypanothione reductase (TPR, Trypanosoma brucei brucei, UniProt P39051)	inhibitor, DTNB-coupled colourimetric	–	together with: substrate at Km	> 100 µM
C=C(NC(=O)C(=C)NC(=O)c1csc(C2=NC3c4csc(n4)C4NC(=O)c5csc(n5)C(C(C)(O)C(C)O)NC(=O)C5CSC(=N5)C(=CC)NC(=O)C(C(C)O)NC(=O)c5csc(n5)C3(CC2)NC(=O)C(CC(C)C)NC(=O)C(=C)NC(=O)C(C)NC(=O)C(C(C)CC)NC2C=Cc3c(C(C)O)cc(nc3C2O)C(=O)OC4C)n1)C(N)=O (stereo not drawn)	PSMB7 in 20S proteasome	trypsin-like activity, inhibitor	purified 20S proteasome	15 min preincubation, 37 °C, together with: Boc-Leu-Arg-Arg-AMC substrate	0.34 ± 0.04 µM
CNC(=O)C1CCN(c2ccccc2NC(=O)c2ccc(-c3ccccc3C)c(C)c2)CC1	Ephrin type-B receptor 2 (EPHB2, Homo sapiens, UniProt P29323)	target engagement in cells, BRET	–	–	13.5 µM
O=C(c1cc([N+](=O)[O-])ccc1Cl)N1CCN(c2cccc(Cl)c2)CC1	SEC14 (Saccharomyces cerevisiae, UniProt P24280)	enzyme activity, inhibitor, radiometric	–	–	> 100 µM
